{"data": "Measured values collected from several papers", "Neuronal acetylcholine receptor; alpha3/beta4": "Neuronal acetylcholine receptor; alpha3/beta4 (Rattus norvegicus, UniProt P04757+P12392)", "note": "Protocols differ between the studies behind these lines. ± marks the error that the study gave.", "sequence of UniProt P12392 (whole entry, looked up)": "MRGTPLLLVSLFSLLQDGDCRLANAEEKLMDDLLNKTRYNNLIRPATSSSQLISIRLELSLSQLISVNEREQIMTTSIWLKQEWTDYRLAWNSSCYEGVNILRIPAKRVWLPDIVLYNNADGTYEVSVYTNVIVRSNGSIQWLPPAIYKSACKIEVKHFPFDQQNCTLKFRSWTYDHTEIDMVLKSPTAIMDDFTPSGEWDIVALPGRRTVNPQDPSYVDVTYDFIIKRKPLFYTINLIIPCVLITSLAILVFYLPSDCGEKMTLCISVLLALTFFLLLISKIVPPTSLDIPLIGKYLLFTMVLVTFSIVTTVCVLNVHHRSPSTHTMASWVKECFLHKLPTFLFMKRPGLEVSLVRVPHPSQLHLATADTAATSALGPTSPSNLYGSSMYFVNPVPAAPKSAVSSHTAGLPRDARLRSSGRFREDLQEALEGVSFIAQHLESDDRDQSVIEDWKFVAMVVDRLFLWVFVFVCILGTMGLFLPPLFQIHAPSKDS", "sequence of UniProt P04757 (whole entry, looked up)": "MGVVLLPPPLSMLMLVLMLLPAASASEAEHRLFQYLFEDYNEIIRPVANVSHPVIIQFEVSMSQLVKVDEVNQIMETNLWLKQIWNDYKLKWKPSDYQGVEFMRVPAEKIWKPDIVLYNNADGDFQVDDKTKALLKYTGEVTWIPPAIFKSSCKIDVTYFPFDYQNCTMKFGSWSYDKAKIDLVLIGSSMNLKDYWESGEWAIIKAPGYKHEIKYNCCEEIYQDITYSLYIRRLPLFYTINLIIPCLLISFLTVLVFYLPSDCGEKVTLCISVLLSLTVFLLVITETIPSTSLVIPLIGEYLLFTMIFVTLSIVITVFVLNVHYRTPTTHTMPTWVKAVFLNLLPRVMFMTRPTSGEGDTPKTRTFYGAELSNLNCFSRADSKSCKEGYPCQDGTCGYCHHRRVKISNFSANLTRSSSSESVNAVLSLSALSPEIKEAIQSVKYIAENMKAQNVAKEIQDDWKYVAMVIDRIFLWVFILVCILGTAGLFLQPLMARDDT", "sequence of UniProt P36544 (whole entry, looked up)": "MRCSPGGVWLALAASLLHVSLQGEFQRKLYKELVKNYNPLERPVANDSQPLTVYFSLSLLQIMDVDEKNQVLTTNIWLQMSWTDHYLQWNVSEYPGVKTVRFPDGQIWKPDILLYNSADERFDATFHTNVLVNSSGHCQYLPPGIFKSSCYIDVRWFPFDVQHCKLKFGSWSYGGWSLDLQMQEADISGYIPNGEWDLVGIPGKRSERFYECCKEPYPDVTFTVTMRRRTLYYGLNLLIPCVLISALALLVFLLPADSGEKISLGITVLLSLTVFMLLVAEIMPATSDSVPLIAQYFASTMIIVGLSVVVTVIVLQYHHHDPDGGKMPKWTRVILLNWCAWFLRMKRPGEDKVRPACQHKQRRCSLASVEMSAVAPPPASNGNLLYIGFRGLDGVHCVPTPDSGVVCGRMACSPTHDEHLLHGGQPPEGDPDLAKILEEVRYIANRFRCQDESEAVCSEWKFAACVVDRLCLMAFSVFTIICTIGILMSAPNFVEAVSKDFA", "sequence of UniProt P09483 (whole entry, looked up)": "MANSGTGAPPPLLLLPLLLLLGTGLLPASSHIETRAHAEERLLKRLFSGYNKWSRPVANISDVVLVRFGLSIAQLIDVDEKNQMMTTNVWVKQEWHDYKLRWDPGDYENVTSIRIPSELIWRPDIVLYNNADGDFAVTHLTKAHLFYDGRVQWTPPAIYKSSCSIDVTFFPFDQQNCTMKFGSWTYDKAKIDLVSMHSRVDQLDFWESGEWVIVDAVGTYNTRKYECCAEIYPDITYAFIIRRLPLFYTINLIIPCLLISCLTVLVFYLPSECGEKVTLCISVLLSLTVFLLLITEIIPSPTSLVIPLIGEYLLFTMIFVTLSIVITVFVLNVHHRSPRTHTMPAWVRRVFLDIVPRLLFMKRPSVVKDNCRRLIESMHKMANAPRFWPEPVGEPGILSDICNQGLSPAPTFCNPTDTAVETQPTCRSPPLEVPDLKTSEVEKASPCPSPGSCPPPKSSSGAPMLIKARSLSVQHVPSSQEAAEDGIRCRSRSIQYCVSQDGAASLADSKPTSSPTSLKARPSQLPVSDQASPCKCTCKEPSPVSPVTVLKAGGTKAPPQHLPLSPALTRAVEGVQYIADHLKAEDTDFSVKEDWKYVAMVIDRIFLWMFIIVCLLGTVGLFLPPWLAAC", "sequence of UniProt P12390 (whole entry, looked up)": "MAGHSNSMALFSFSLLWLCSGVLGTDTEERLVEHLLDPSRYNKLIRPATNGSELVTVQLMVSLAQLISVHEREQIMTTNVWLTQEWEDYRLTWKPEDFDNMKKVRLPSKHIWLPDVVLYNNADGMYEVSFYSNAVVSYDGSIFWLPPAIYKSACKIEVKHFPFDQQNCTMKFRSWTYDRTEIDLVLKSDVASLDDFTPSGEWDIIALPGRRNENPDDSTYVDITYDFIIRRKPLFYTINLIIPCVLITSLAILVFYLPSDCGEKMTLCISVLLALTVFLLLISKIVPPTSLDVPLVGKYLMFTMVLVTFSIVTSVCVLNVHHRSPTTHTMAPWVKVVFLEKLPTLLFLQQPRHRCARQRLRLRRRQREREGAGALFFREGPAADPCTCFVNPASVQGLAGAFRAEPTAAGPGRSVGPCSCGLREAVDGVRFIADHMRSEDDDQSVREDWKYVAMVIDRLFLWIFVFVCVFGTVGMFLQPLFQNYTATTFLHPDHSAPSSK", "sequence of UniProt P43143 (whole entry, looked up)": "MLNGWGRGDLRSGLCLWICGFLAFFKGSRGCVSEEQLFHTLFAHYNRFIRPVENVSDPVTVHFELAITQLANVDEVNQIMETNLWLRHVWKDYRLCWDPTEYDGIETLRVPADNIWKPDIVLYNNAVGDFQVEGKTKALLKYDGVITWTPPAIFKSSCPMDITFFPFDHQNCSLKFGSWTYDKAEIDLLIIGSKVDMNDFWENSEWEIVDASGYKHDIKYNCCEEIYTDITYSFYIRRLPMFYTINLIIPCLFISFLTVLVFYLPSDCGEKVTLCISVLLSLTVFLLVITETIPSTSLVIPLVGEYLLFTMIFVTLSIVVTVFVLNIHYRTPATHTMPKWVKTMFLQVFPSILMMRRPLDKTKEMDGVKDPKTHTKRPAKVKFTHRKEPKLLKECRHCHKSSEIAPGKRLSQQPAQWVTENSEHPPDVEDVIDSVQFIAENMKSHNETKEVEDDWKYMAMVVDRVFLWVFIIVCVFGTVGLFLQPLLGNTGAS"}
{"Structure (SMILES)": "O=C(N/N=C/c1cc(Br)cc(Br)c1O)c1cccnc1", "tested on": "tpx (Yersinia pseudotuberculosis, UniProt Q66A71)", "measurement": "Kd", "value": "71000 nM"}
{"Structure (SMILES)": "CCC[C@@H]1NC(=O)[C@H](CC)NC(=O)[C@H](Cc2ccccc2)NC(=O)[C@@H]2CSSC[C@H](NC(=O)CN)C(=O)N[C@@H](CSSC[C@@H](C(N)=O)NC(=O)[C@H](Cc3ccc(O)cc3)NC1=O)C(=O)N[C@@H](CO)C(=O)N[C@@H](Cc1c[nH]cn1)C(=O)N1CCC[C@H]1C(=O)N[C@@H](CC)C(=O)N2", "tested on": "Neuronal acetylcholine receptor; alpha3/beta4", "measurement": "Ki", "value": "270 ± 11 nM"}
{"Structure (SMILES)": "CC(=O)c1cccc(-c2nc(Nc3ccccc3)nc(N3CCOCC3)n2)c1", "tested on": "SARS-CoV-2", "measurement": "IC50", "value": "340 nM"}
{"Structure (SMILES)": "CC[C@H](C)[C@@H]1NC(=O)[C@@H]2CCCN2C(=O)[C@H](C)NC(=O)[C@H](CCSC)NC(=O)[C@H](C)NC(=O)[C@H](CO)NC(=O)[C@@H]2CSSC[C@H](NC(=O)CN)C(=O)N[C@@H](CSSC[C@@H](C(N)=O)NC1=O)C(=O)N[C@@H](CO)C(=O)N[C@@H](Cc1c[nH]cn1)C(=O)N1CCC[C@H]1C(=O)N[C@@H](C(C)C)C(=O)N2", "tested on": "Nicotinic acetylcholine receptor alpha6/alpha3/beta4 (Rattus norvegicus, UniProt P04757+P12392+P43143)", "test": "receptor current, antagonist", "test system": "rat", "measurement": "Hill slope", "value": 1.03}
{"Structure (SMILES)": "CC[C@H](C)[C@@H]1NC(=O)[C@H](CC(=O)O)NC(=O)[C@@H]2CCCN2C(=O)[C@H](CC(N)=O)NC(=O)[C@H](CCC(N)=O)NC(=O)[C@H](CC(C)C)NC(=O)[C@H]([C@@H](C)CC)NC(=O)[C@@H]2CSSC[C@H](NC(=O)[C@@H](N)CC(=O)O)C(=O)N[C@@H](CSSC[C@@H](C(N)=O)NC1=O)C(=O)N[C@@H](CO)C(=O)N[C@@H](C)C(=O)N1CCC[C@H]1C(=O)N1CCC[C@H]1C(=O)N2", "tested on": "Neuronal acetylcholine receptor; alpha4/beta2 (Rattus norvegicus, UniProt P09483+P12390)", "test system": "rat cells", "measurement": "IC50", "value": "> 10000 nM"}
{"Structure (SMILES)": "CCC[C@@H]1NC(=O)[C@H](CC)NC(=O)[C@H](Cc2ccccc2)NC(=O)[C@@H]2CSSC[C@H](NC(=O)CN)C(=O)N[C@@H](CSSC[C@@H](C(N)=O)NC(=O)[C@H](Cc3ccc(O)cc3)NC1=O)C(=O)N[C@@H](CO)C(=O)N[C@@H](Cc1c[nH]cn1)C(=O)N1CCC[C@H]1C(=O)N1CCC[C@H]1C(=O)N2", "tested on": "Neuronal acetylcholine receptor; alpha3/beta4", "measurement": "Ki", "value": "794 ± 65 nM"}
{"Structure (SMILES)": "CC1(C)SSC[C@@H](C(N)=O)NC(=O)[C@H](Cc2c[nH]c3ccccc23)NC(=O)[C@H](CCCNC(=N)N)NC(=O)[C@H](CCCNC(=N)N)NC(=O)[C@H](Cc2c[nH]c3ccccc23)NC(=O)[C@H](Cc2c[nH]c3ccccc23)NC(=O)[C@H](CCCNC(=N)N)NC(=O)[C@H]1NC(=O)CN", "tested on": "CHRNA7 (Homo sapiens, UniProt P36544)", "test system": "human cells", "measurement": "IC50", "value": "1370 ± 72.8 nM"}
{"Structure (SMILES)": "CCN(CCO)CCCC(C)Nc1ccnc2cc(Cl)ccc12 (stereo not drawn)", "tested on": "SARS-CoV-2", "measurement": "IC50", "value": "1200 nM"}
{"Structure (SMILES)": "CC[C@H](C)[C@@H]1NC(=O)[C@@H]2CCCN2C(=O)[C@H](CO)NC(=O)[C@H](CCSC)NC(=O)[C@H](C)NC(=O)[C@H](CO)NC(=O)[C@@H]2CSSC[C@H](NC(=O)CN)C(=O)N[C@@H](CSSC[C@@H](C(N)=O)NC1=O)C(=O)N[C@@H](C)C(=O)N[C@@H](Cc1c[nH]cn1)C(=O)N1CCC[C@H]1C(=O)N[C@@H](C(C)C)C(=O)N2", "tested on": "Neuronal acetylcholine receptor; alpha3/beta4", "test": "receptor current, antagonist", "test system": "rat", "measurement": "Hill slope", "value": 1.16}
{"note": "Repeated from above:"}
{"Structure (SMILES)": "CC[C@H](C)[C@@H]1NC(=O)[C@H](CC(=O)O)NC(=O)[C@@H]2CCCN2C(=O)[C@H](CC(N)=O)NC(=O)[C@H](CCC(N)=O)NC(=O)[C@H](CC(C)C)NC(=O)[C@H]([C@@H](C)CC)NC(=O)[C@@H]2CSSC[C@H](NC(=O)[C@@H](N)CC(=O)O)C(=O)N[C@@H](CSSC[C@@H](C(N)=O)NC1=O)C(=O)N[C@@H](CO)C(=O)N[C@@H](C)C(=O)N1CCC[C@H]1C(=O)N1CCC[C@H]1C(=O)N2", "tested on": "Neuronal acetylcholine receptor; alpha4/beta2 (Rattus norvegicus, UniProt P09483+P12390)", "test system": "rat cells", "measurement": "IC50", "value": "> 10000 nM"}
